Results of several laboratories.
A part holds a random share of what one study measured. Several values in a cell are separate wells, animals, samples, runs or records.
UniProt O14965, sequence (whole entry, looked up): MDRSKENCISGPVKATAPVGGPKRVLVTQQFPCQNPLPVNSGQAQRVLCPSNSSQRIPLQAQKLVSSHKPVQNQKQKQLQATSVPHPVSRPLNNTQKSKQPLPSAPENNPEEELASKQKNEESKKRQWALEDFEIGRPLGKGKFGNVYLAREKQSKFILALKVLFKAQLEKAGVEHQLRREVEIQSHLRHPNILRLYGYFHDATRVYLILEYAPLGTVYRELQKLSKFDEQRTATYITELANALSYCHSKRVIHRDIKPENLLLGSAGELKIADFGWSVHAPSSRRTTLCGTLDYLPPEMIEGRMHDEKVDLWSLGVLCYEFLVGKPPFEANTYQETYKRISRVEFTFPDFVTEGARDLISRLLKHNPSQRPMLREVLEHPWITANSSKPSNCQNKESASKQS
UniProt Q9UL54, sequence (whole entry, looked up): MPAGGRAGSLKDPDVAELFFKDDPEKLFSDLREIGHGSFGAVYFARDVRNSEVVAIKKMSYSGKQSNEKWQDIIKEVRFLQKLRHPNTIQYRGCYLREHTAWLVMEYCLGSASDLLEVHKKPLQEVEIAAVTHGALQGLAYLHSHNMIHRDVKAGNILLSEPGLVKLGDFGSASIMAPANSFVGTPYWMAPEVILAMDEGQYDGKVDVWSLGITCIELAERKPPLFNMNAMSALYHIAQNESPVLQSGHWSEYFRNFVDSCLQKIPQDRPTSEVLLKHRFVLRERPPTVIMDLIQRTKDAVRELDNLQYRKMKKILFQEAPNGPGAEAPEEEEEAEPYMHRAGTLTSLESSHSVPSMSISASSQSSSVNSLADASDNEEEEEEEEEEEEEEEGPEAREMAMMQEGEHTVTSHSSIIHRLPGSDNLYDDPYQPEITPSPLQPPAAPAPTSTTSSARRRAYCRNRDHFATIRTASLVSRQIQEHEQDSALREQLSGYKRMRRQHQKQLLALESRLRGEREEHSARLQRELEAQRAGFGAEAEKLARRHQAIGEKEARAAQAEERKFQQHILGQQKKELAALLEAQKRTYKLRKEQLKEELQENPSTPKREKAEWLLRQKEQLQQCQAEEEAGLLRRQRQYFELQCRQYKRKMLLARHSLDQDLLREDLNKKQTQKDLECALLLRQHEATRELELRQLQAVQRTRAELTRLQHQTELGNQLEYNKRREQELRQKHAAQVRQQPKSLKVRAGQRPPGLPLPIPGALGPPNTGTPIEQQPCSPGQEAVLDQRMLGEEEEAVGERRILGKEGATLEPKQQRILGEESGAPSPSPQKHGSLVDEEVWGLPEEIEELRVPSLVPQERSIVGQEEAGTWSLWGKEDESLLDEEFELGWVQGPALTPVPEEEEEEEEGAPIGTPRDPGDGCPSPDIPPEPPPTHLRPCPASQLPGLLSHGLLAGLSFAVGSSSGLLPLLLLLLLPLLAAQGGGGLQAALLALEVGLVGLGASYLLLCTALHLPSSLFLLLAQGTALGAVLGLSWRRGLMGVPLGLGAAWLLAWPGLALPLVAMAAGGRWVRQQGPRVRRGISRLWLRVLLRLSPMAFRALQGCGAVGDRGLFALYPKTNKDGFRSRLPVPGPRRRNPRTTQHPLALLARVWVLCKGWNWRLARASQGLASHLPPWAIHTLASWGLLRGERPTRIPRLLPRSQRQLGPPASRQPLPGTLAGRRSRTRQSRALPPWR
UniProt Q15349, sequence (whole entry, looked up): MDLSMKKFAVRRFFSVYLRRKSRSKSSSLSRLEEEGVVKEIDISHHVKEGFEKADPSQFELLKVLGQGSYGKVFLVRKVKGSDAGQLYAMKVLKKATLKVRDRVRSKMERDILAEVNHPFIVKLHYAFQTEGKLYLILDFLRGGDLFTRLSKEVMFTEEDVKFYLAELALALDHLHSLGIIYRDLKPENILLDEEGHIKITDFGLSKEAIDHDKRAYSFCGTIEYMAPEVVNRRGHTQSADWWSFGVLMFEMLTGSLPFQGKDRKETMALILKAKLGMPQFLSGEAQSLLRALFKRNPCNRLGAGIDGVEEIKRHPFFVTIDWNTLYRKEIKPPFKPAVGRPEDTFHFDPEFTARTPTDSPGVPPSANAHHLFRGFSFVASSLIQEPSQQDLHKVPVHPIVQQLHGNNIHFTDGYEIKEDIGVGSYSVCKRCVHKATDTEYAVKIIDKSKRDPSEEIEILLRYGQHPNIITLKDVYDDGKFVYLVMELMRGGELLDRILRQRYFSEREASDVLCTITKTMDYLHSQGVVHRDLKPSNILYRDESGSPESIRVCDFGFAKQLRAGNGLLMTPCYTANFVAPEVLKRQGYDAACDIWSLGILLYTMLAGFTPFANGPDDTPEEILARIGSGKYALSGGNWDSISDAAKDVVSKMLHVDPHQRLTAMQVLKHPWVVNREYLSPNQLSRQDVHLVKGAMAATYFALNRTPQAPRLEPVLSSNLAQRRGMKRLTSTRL

Series 1 — effect on: enzyme activity; action: inhibitor; concentration: 10 µM
Target: Calcium/calmodulin-dependent protein kinase type II subunit alpha (CAMK2A, Homo sapiens, UniProt Q9UQM7)
UniProt Q9UQM7, sequence (whole entry, looked up): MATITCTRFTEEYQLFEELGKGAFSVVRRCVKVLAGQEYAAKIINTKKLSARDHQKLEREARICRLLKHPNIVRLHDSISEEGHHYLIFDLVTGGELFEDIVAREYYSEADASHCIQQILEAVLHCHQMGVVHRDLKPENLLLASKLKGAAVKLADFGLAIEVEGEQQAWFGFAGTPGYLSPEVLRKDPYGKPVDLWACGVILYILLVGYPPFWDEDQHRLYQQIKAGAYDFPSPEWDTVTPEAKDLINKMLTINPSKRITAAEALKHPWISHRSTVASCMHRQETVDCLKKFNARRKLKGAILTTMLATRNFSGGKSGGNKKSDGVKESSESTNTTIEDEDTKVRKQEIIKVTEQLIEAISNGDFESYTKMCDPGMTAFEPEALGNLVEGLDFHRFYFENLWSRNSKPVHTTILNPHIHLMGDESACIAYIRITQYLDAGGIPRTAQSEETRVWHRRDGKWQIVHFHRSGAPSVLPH
SMILES | inhibition [%]
COCc1c(CO)cnc(C)c1O | -5
C=CCCN1C[C@@H]2C[C@H](C1)c1cccc(=O)n1C2 | -20
CC(=O)O[C@@]12CO[C@@H]1C[C@H](O)[C@@]1(C)C(=O)[C@H](O)C3=C(C)[C@@H](O)C[C@@](O)([C@@H](OC(=O)c4ccccc4)[C@H]21)C3(C)C | 32
CC(C)[C@]12CC(=O)[C@H](C)[C@H]1C2 | -7

Series 2 — cell line: mouse MPNST tumor cells; technique: high-content nuclear imaging; refers to: cell number; concentration: 10 µM; time: 12 h; setting: mean of 2 replicates; baseline: plate mean; direction: higher = more cells
Compound | nuclei count [z-score]
C=CCN1C[C@H](C(=O)N(CCCN(C)C)C(=O)NCC)C[C@@H]2c3cccc4[nH]cc(c34)C[C@H]21 | 2.54
CN(C)[C@@H]1C(=O)C(C(N)=O)=C(O)[C@@]2(O)C(=O)C3=C(O)c4c(O)cccc4[C@@](C)(O)[C@H]3C[C@@H]12 | 0.71
CC(N)C(O)c1ccccc1 (stereo not shown) | 0.434

Series 3 — effect on: enzyme activity; concentration: 0.5 µM
Compound: O=c1[nH]c2ccccc2n1C1CCN(Cc2ccc(-c3[nH]c4cc5ncnc5cc4nc3-c3ccccc3)cc2)CC1
target | assay | scale | remaining activity [%]
Dual specificity tyrosine-phosphorylation-regulated kinase 1B (DYRK1B, Homo sapiens, UniProt Q9Y463) | inhibitor, radiometric | – | 97.9
Aurora kinase A (AURKA, Homo sapiens, UniProt O14965) | – | – | 99
Ribosomal protein S6 kinase alpha-2 (RPS6KA2, Homo sapiens, UniProt Q15349) | inhibitor | baseline: control | 101
Serine/threonine-protein kinase TAO2 (TAOK2, Homo sapiens, UniProt Q9UL54) | inhibitor | baseline: control | 98.8

Mixed results — species: C57BL/6 CES1-/- mouse; route: intravenous; dose: 1 mg/kg
SMILES | white blood cell count
[N-]=[N+]=CC(=O)CC[C@H](N)C(=O)O | 1.22 and 0.97 and 0.59
CC(=O)N[C@@H](Cc1c[nH]c2ccccc12)C(=O)N[C@@H](CCC(=O)C=[N+]=[N-])C(=O)OC(C)C | 7.63 and 2.9 and 6.93

For quick reference, copied from above (series 1):
SMILES | inhibition [%]
COCc1c(CO)cnc(C)c1O | -5
CC(=O)O[C@@]12CO[C@@H]1C[C@H](O)[C@@]1(C)C(=O)[C@H](O)C3=C(C)[C@@H](O)C[C@@](O)([C@@H](OC(=O)c4ccccc4)[C@H]21)C3(C)C | 32
